Published values pooled from the literature.
Protocols differ between the studies behind these lines.
Route: oral

`CC(C)c1nc(N(C)S(C)(=O)=O)nc(-c2ccc(F)cc2)c1/C=C/[C@@H](O)C[C@@H](O)CC(=O)O`: “participants with dizziness” 0% (human; 10 mg, alone).
`COC(=O)N[C@@H](C)CNc1nccc(-c2cn(C(C)C)nc2-c2cc(Cl)cc(NS(C)(=O)=O)c2F)n1`: “participants with TEAEs” 88% (human; dose not given, alone or with diltiazem or posaconazole).
For `CCCCCCOC(=O)NC(=N)c1ccc(NCc2nc3cc(C(=O)N(CCC(=O)OCC)c4ccccn4)ccc3n2C)cc1`, “participants with adverse event” read 0% (measured: Wound; human; 75 mg, alone).
`COC(=O)N[C@H](C(=O)N1CCC[C@H]1c1ncc(-c2cc(F)c3c(c2)O[C@@H](c2cnc(C4CC4)s2)n2c-3cc3cc(-c4cnc([C@@H]5CCCN5C(=O)[C@@H](NC(=O)OC)C(C)C)[nH]4)ccc32)[nH]1)C(C)C`: “participants with Dizziness” 6.3% (healthy adult humans; 180 mg, 6 days).
For `C[C@H]1CN(C(=O)CC#N)[C@]12CCN(c1ncnc3[nH]ccc13)C2`, “participants withdrawn due to AEs” read 0% (human; 1.5 mg single dose).
For `CC[C@@H]([C@H](C)O)n1ncn(-c2ccc(N3CCN(c4ccc(OC[C@@H]5CO[C@@](Cn6cncn6)(c6ccc(F)cc6F)C5)cc4)CC3)cc2)c1=O`, “participants with adverse events” read 25% (human; dose not given).
Under “participants with pain”, `C=CC(=O)NC1CCN(c2ncc3ncnc(Nc4ccc(Oc5ccc6c(c5)ncn6C)c(C)c4)c3n2)CC1` is recorded as 6.3% (human, male; 240 mg, treatment-emergent adverse event).
`CCCS(=O)(=O)N[C@H]1C[C@@H](N(C)c2ncnc3[nH]ccc23)C1` — result for “participants with TEAEs”: 25% (healthy human; dose not given, together with: rosuvastatin).
`COCCCOc1ccnc(C[S+]([O-])c2nc3ccccc3[nH]2)c1C` (stereo not shown) — result for “participants with adverse events”: 18.2% (healthy male humans; dose not given).
`CCn1c(=O)c(-c2cc(NC(=O)Nc3ccccc3)c(F)cc2Br)cc2cnc(NC)cc21` — result for “participants with grade ≥ 3 TEAE”: 0% (measured: amylase increased; healthy human, matched to severe hepatic impairment; 50 mg single dose).
`O=C(COc1ccc(Cl)cc1)NC12CC(c3nnc([C@H]4C[C@@H](OC(F)(F)F)C4)o3)(C1)C2`: “participants with TEAE” 71.4% (human both sexes; 200 mg once daily, 14 days).
Under “participants with Insomnia”, `CC(C)c1nc(CN(C)C(=O)N[C@@H](CCN2CCOCC2)C(=O)N[C@H](CC[C@H](Cc2ccccc2)NC(=O)OCc2cncs2)Cc2ccccc2)cs1` is recorded as 0% (human; dose not given).
Under “participants with drug-related TEAE”, `CC(C)c1nc(N(C)S(C)(=O)=O)nc(-c2ccc(F)cc2)c1/C=C/[C@@H](O)C[C@@H](O)CC(=O)O` is recorded as 0% (human; 10 mg).
`Cc1cc(C)c(CNC(=O)c2cc(Cl)c3c(c2C)O[C@@](C)([C@H]2CC[C@H](N(C)C)CC2)O3)c(=O)[nH]1` — result for “participants with TEAEs”: 50% (healthy human male; 200 mg single dose, grade 1).
`CN1C(=O)[C@@H](NC(=O)c2nnc(Cc3ccccc3)[nH]2)COc2cccnc21`: “participants with any serious TEAE” 0% (phase I single ascending dose; human, male and female; 100 mg, fasted).
Under “participants with drug-related TEAE”, `C[C@H]1O[C@@H](O[C@H]2[C@@H](O)C[C@H](O[C@H]3[C@@H](O)C[C@H](O[C@H]4CC[C@@]5(C)[C@H](CC[C@@H]6[C@@H]5C[C@@H](O)[C@]5(C)[C@@H](C7=CC(=O)OC7)CC[C@]65O)C4)O[C@@H]3C)O[C@@H]2C)C[C@H](O)[C@@H]1O` is recorded as 6.9% (human; 0.25 mg).

Excerpt of the above:
For `CCCCCCOC(=O)NC(=N)c1ccc(NCc2nc3cc(C(=O)N(CCC(=O)OCC)c4ccccn4)ccc3n2C)cc1`, “participants with adverse event” read 0% (measured: Wound; human; 75 mg, alone).
`COC(=O)N[C@H](C(=O)N1CCC[C@H]1c1ncc(-c2cc(F)c3c(c2)O[C@@H](c2cnc(C4CC4)s2)n2c-3cc3cc(-c4cnc([C@@H]5CCCN5C(=O)[C@@H](NC(=O)OC)C(C)C)[nH]4)ccc32)[nH]1)C(C)C`: “participants with Dizziness” 6.3% (healthy adult humans; 180 mg, 6 days).
